Measured values gathered from unrelated publications.
Compare with care: the assays were run in different laboratories. Values joined by “and” are separate records of one study, mostly repeats; a detail may differ. Numbers after ± are the reported error.
Mogs: Mogs (Mus musculus, UniProt Q80UM7)
UniProt Q80UM7, sequence (whole entry, looked up): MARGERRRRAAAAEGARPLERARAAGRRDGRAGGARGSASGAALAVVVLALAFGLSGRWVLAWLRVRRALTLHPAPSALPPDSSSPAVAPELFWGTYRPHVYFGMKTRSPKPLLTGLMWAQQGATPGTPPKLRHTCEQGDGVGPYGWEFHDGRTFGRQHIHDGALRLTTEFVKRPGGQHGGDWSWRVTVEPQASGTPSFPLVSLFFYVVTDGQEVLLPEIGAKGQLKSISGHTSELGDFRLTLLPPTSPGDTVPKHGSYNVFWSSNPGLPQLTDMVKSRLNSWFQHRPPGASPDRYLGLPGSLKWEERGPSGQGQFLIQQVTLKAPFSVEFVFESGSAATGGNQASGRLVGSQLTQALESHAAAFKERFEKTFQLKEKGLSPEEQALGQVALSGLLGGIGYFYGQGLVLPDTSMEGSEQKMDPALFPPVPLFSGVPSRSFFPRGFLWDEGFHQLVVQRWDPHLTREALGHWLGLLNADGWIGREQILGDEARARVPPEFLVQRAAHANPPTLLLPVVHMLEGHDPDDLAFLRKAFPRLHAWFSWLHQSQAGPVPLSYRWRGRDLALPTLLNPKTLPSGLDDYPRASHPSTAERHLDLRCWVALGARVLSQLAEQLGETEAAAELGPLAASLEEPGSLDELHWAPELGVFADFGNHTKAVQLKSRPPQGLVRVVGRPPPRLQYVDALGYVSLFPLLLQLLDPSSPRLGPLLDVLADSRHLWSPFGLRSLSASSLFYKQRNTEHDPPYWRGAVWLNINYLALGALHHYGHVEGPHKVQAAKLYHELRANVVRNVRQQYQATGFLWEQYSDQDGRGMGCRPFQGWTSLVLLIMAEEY
RORC RORγt ligand-binding domain: Nuclear receptor ROR-gamma, RORγt ligand-binding domain (RORC, Homo sapiens, UniProt P51449)
UniProt P51449, sequence (whole entry, looked up): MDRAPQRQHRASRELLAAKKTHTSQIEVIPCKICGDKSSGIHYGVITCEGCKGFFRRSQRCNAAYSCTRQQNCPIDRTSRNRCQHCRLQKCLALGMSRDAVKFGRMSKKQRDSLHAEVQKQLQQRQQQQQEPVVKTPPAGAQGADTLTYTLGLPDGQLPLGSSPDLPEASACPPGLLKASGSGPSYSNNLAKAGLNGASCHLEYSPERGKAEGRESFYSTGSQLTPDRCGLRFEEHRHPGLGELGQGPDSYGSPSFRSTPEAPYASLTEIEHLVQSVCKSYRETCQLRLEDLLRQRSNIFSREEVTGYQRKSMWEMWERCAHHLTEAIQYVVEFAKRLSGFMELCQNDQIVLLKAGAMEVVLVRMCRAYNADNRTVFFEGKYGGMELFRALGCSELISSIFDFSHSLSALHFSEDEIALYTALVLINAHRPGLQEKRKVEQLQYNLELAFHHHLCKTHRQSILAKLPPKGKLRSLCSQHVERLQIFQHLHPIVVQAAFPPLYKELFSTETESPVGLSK
BCL6: B-cell lymphoma 6 protein (BCL6, Homo sapiens, UniProt P41182)
plsY: Glycerol-3-phosphate acyltransferase (plsY, Streptococcus pneumoniae, UniProt P0A4Q0)
UniProt P0A4Q0, sequence (whole entry, looked up): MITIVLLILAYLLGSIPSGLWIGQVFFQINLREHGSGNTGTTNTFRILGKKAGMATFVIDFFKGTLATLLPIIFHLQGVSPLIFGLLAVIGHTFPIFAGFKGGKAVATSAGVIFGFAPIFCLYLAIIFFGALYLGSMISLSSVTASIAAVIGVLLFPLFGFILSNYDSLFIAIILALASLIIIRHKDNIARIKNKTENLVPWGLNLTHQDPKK
qscR DNA-bound dimer: qscR, DNA-bound dimer (Pseudomonas aeruginosa, UniProt G3XD77)
DNA topoisomerase 4 subunit A with ParE subunit: DNA topoisomerase 4 subunit A, with ParE subunit (Escherichia coli K-12, UniProt P0AFI2)
UniProt P0AFI2, sequence (whole entry, looked up): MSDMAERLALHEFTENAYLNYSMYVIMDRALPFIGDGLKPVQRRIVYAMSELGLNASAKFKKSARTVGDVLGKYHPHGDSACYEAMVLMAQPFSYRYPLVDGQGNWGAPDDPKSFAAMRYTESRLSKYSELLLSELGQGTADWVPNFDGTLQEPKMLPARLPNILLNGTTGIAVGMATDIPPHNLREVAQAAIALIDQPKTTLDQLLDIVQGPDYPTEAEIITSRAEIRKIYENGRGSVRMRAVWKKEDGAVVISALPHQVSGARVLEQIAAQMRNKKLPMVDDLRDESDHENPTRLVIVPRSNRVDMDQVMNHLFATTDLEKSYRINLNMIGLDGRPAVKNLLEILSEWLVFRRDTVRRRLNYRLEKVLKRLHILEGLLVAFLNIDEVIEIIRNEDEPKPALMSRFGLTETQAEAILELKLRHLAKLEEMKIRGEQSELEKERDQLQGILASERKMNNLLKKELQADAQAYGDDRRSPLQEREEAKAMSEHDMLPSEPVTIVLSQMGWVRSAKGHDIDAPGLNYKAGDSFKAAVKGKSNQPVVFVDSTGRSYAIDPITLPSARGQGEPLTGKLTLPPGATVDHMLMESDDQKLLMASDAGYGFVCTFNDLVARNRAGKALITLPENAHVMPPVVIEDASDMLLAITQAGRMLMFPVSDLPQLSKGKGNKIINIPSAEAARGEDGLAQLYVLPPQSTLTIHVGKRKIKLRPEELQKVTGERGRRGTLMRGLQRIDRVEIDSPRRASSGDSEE
KCNH2: Voltage-gated inwardly rectifying potassium channel KCNH2 (KCNH2, Homo sapiens, UniProt Q12809)
UniProt Q12809, sequence (whole entry, looked up): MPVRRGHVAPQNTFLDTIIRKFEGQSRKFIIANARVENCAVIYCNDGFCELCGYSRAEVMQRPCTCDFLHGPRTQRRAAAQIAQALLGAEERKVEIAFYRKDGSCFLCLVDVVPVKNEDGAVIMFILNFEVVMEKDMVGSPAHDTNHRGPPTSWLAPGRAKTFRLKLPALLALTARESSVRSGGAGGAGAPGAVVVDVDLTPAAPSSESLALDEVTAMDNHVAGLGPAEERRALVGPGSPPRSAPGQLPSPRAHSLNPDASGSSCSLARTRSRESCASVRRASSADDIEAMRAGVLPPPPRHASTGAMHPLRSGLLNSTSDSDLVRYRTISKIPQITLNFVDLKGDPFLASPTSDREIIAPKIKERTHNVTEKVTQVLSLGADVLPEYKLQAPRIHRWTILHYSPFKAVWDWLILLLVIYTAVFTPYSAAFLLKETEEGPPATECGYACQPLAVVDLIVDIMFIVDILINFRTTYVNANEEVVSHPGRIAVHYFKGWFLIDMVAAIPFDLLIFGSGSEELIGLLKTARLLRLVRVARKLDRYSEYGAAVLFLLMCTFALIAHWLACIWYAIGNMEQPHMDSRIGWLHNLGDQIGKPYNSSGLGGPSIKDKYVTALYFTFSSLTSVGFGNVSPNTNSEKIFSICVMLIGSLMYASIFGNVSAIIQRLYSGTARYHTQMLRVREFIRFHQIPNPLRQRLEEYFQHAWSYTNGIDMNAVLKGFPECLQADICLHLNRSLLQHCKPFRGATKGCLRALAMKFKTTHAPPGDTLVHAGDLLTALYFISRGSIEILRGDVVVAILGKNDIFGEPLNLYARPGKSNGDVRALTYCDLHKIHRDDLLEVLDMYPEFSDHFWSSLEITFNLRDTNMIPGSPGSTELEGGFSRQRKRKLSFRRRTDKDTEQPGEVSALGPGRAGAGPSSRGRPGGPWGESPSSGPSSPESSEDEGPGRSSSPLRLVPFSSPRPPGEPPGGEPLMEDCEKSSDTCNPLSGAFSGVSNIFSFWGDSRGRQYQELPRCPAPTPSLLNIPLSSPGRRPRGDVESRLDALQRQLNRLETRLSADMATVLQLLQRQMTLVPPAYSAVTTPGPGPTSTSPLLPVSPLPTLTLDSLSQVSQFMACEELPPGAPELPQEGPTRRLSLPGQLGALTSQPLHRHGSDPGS
NR1H3: Oxysterols receptor LXR-alpha (NR1H3, Homo sapiens, UniProt Q13133)
UniProt Q13133, sequence (whole entry, looked up): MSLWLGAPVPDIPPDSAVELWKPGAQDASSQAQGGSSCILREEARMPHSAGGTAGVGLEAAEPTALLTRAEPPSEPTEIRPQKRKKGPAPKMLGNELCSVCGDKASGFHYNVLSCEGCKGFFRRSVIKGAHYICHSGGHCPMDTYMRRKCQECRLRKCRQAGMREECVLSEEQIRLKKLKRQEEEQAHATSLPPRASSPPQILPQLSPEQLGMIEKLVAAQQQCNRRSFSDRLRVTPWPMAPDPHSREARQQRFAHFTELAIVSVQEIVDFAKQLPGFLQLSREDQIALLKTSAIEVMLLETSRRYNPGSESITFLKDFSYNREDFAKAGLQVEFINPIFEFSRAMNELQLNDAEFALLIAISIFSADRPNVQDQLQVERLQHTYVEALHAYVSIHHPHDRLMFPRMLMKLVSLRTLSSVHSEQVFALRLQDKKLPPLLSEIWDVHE
UniProt Q99572, sequence (whole entry, unmodified, looked up): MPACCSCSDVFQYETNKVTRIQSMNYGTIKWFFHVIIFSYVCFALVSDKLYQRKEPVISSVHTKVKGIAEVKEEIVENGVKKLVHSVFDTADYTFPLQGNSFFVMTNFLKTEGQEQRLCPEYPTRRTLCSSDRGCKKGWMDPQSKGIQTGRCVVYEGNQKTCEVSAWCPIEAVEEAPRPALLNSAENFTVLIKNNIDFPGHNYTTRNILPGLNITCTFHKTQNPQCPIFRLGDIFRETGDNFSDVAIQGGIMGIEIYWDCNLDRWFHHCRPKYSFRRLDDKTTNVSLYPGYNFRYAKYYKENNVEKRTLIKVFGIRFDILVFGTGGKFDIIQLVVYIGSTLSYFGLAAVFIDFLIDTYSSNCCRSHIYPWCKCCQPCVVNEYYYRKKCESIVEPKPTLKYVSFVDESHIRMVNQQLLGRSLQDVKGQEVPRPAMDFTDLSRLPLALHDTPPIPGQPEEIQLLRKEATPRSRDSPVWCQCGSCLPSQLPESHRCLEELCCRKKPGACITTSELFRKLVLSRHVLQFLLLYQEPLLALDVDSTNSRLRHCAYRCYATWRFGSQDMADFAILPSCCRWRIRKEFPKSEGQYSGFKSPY
UniProt P31644, sequence (whole entry, looked up): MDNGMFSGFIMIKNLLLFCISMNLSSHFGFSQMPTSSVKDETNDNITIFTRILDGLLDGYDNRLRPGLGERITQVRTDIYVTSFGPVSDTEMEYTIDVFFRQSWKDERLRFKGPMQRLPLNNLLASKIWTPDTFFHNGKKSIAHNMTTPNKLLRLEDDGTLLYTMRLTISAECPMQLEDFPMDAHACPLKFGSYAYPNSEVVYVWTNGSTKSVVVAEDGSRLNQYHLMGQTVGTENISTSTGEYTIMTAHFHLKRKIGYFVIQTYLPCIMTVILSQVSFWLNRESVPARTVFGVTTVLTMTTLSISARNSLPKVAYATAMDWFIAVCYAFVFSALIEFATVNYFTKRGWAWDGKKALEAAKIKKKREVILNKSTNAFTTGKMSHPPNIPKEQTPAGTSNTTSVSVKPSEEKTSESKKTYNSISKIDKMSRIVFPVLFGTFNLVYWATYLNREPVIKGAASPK

`O=[N+]([O-])c1cc(-c2ccnc(N3CCOCC3)n2)ccc1NCCCCCCN1C[C@H](O)[C@@H](O)[C@H](O)[C@H]1CO` has an IC50 of < 1 nM (Mogs; enzyme activity, inhibitor; together with: trisaccharide substrate).
`O=C/C=C/c1ccccc1` gave an IC50 of > 378000 nM (Cytochrome P450 2D6 (CYP2D6, Homo sapiens, UniProt P10635); enzyme activity, inhibitor).
The IC50 of `CCOP(=O)(OCC)Oc1cc(C)nc(C(C)C)n1` is reported as 3.9 ± 0.6 nM (carboxylesterase (mouse); PON1+/+ mouse liver homogenate; 30 min, 23 °C).
The IC50 of `C[C@@H]1CN(Cc2ccc(F)cc2)CCN1C(=O)COc1ccc(Cl)cc1NC(N)=O` is reported as 4780 ± 600 nM (RORC RORγt ligand-binding domain; co-activator peptide binding, inhibitor, HTRF; 2 h, RORγt LBD 100 nM, together with: SRC1-2 peptide 100 nM).
`Cn1c(=O)n(CCC(C)(C)O)c2cc(Nc3c(Cl)cncc3Cl)ccc21` gave an IC50 of 22600 nM and 53900 nM and 41100 nM (BCL6).
For `O=C(O)CC(F)(F)C(=O)N1N=C(c2c(-c3ccc(Cl)cc3)c3ccccc3[nH]c2=O)C[C@H]1c1ccc(Cl)cc1`, the IC50 was 93 nM (Grin1/Grin2b/Glutamate receptor ionotropic, NMDA 2D (Rattus norvegicus, UniProt P35439+Q00960+Q62645); ion current, inhibitor, two-electrode voltage clamp; Xenopus oocytes; together with: glycine and glutamate).
`CCCCCCCCCCCCCCCC(=O)C(F)(F)P(=O)(O)O` gave an IC50 of 39000 nM (plsY; inhibitor).
`CCCCCCCCCC(=O)CC(=O)N[C@H]1CCOC1=O` has an IC50 of 62.1 nM (qscR DNA-bound dimer; ligand binding, FRET displacement; protein 5 nM with DNA, together with: fluorescent ligand 2 µM).
For `CC(=O)O[C@@]12[C@H](O)[C@@H](C)[C@@]3(O)[C@@H](C=C(CO)C[C@]4(O)C(=O)C(C)=C[C@@H]34)[C@@H]1C2(C)C`, the IC50 was 3950 ± 1200 nM (Protein unc-13 homolog A (Unc13a, Rattus norvegicus, UniProt Q62768); inhibitor).
The IC50 of `Cn1c(=O)n(CCC(C)(C)O)c2cc(Nc3nc(N4CCC(F)(F)CC4)ncc3Cl)ccc21` is reported as 270 nM and 340 nM (BCL6).
`O=[N+]([O-])c1cc(N2[C@@H]3CC[C@H]2COC3)ccc1NCc1ccc(CN2C[C@H](O)[C@@H](O)[C@H](O)[C@H]2CO)cc1` gave an IC50 of < 1 nM (Mogs; enzyme activity, inhibitor; together with: trisaccharide substrate).
For `O=C(CCCOc1ccc(Cl)cc1)NC1CCOC1=O` (centres unmarked), the IC50 was 160 nM (qscR DNA-bound dimer; ligand binding, FRET displacement; protein 5 nM with DNA, together with: fluorescent ligand 2 µM).
The IC50 of `Oc1c(Cl)cc(Cl)c(Cl)c1Cc1c(O)c(Cl)cc(Cl)c1Cl` is reported as 9370 nM (Flagellar hook protein FlgE (flgE, Treponema pallidum, UniProt O07884)).
For `Cn1c(=O)ccc2ccc(F)c(CCNC[C@H]3CN(c4ncc5c(n4)NC(=O)CO5)C(=O)O3)c21`, the IC50 was 112 nM (DNA topoisomerase 4 subunit A with ParE subunit; decatenation activity, inhibitor).
For `COc1cc(Nc2ncc(F)c(Nc3ccc4c(n3)NC(=O)C(C)(C)O4)n2)cc(OC)c1OC`, the IC50 was > 10000 nM (Histamine H2 receptor (HRH2, Homo sapiens, UniProt P25021)).
With `O=C1C=CC(=O)c2c(O)cccc21` the IC50 was 20000 ± 1000 nM (Malonyl-CoA-ACP transacylase (Helicobacter pylori, UniProt Q56S05); inhibitor, dehydrogenase-coupled; together with: alpha-ketoglutarate).
`CCCCCCCCCCCC(=O)N[C@H]1CCOC1=O` gave an IC50 of 31.1 nM (qscR DNA-bound dimer; ligand binding, FRET displacement; protein 5 nM with DNA, together with: fluorescent ligand 2 µM).
For `COc1cc(C(=O)N2CC[C@@H](O)[C@@H](N)C2)cc2nc(-c3cc4ccccc4n3CC3CC3)n(C)c12`, the IC50 was > 39800 nM (Substance-P receptor (TACR1, Homo sapiens, UniProt P25103); intracellular calcium, antagonist, luminescence).
With `O=CN1CCC[C@H]1C(=O)O` the IC50 was 490000 ± 50000 nM (Pyrroline-5-carboxylate reductase 1, mitochondrial (Homo sapiens, UniProt P32322); enzyme activity).
With `O=c1[nH]c2ccccc2n1C1CCN(Cc2ccc(-c3nc4cc5[nH]cnc5cc4nc3-c3ccccc3)cc2)CC1` the IC50 was 890 ± 330 nM (RORC RORγt ligand-binding domain; co-activator peptide binding, inhibitor, HTRF; 2 h, RORγt LBD 100 nM, together with: SRC1-2 peptide 100 nM).
With `Cn1c(=O)n(CCC(C)(C)O)c2cc(Nc3ccncc3Cl)ccc21` the IC50 was 820 nM and 890 nM and 930 nM and 1190 nM (BCL6).
`CCCCCCCC/C=C\CCCCCCCC(=O)C(F)(F)P(=O)(O)O` has an IC50 of 20000 nM (plsY; inhibitor).
`CCCCCc1cc(/C=C2\N=C(c3ccc[nH]3)C=C2Oc2ccccc2)[nH]c1C` has an IC50 of > 10000 nM (KCNH2).
`CO[C@H]1C[C@H](O[C@H]2[C@H](C)O[C@@H](O[C@@H]3/C(C)=C/C[C@@H]4C[C@@H](C[C@]5(C=C[C@H](C)[C@@H](C6CCCCC6)O5)O4)OC(=O)[C@@H]4C=C(C)[C@@H](O)[C@H]5OC/C(=C\C=C\[C@@H]3C)[C@]54O)C[C@@H]2OC)O[C@@H](C)[C@@H]1O` has an IC50 of 2470 ± 2130 nM (NR1H3; coactivator recruitment).
With `CC(=O)c1cc(O)c2ccccc2c1O` the IC50 was 5200 nM (Genome polyprotein, NS5 methyltransferase domain (GP1, West Nile virus, UniProt Q9Q6P4); IC50-HTRF).
`Cc1ccc(S(=O)(=O)Nc2ccc(-c3n[nH]c(=S)o3)cc2)cc1` has an IC50 of 1090 nM (P2X purinoceptor 7 (P2RX7, Homo sapiens, UniProt Q99572); calcium mobilization, antagonist; MCF7 transfected with P2RX7; together with: 100 µM BzATP).
`Cn1c(=O)ccc2ccc(F)c(CCNC[C@@H]3CN(c4cnc5c(n4)NC(=O)CO5)C(=O)O3)c21` gave an IC50 of 52 nM (DNA topoisomerase 4 subunit A with ParE subunit; decatenation activity, inhibitor).
`C[C@H]1CN(c2n[nH]c3nc(N[C@H]4CC[C@H](NS(=O)(=O)CCC(F)(F)F)CC4)ncc23)CCO1` has an IC50 of ≥ 20000 nM (Receptor tyrosine-protein kinase erbB-4 (ERBB4, Homo sapiens, UniProt Q15303); biochemical).
With `Cn1ccnc1-c1ncc(Cl)c(Nc2ccc3c(c2)n(CCC(C)(C)O)c(=O)n3C)n1` the IC50 was 360 nM and 620 nM (BCL6).
The IC50 of `COCCn1c2nc(=O)n(-c3ccccc3)c(=O)c-2nc2ccccc21` is reported as 6000 nM (Genome polyprotein, methyltransferase domain (pol, Dengue virus type 3, UniProt Q6YMS4); HTRF; Dengue virus 3).
`Cn1c(=O)n(CCC(C)(C)O)c2cc(Nc3nc(N4CCCC(C(F)(F)F)C4)ncc3Cl)ccc21` (centres unmarked) has an IC50 of 260 nM and 630 nM (BCL6).
For `O=C1c2ccccc2C(=O)C1C(=O)C(c1ccccc1)c1ccccc1`, the IC50 was 35700 ± 35500 nM (NR1H3; receptor activity, inhibitor; cells).
`C[C@@H]1C[C@H](C)CN(c2cc(Nc3ccc4c(c3)n(CCC(C)(C)O)c(=O)n4C)c(Cl)cn2)C1` has an IC50 of 3870 nM (BCL6).
For `Nc1ncnc2c1c(Oc1cc(C(F)(F)F)ncn1)nn2C1CC1`, the IC50 was > 20000 nM (Calmodulin-domain protein kinase 1 (CDPK1, Toxoplasma gondii, UniProt Q9BJF5); enzyme activity, inhibitor).
`C[C@@H]1CN(c2ncc(Cl)c(Nc3ccc4c(c3)n(CCC(C)(C)O)c(=O)n4C)n2)C[C@H](C)N1C` has an IC50 of 160 nM and 230 nM (BCL6).
`COc1ncccc1-c1cnn2ccc(N3CCN(C(=O)OC(C)C)CC3)nc12` has an IC50 of > 30000 nM (Gamma-aminobutyric acid receptor subunit alpha-5 (Homo sapiens, UniProt P31644); liability screen).
`Cn1c(=O)n(C)c2cc(Nc3cc(SCc4ccccc4)ncn3)ccc21` gave an IC50 of 57000 nM and 114000 nM and 53000 nM (BCL6).
`C[C@]12C[C@@H](O)[C@H]3[C@@H](CC[C@]4(O)C[C@@H](O)C[C@@H](O)[C@]34CO)[C@@]1(O)CC[C@@H]2c1cn(Cc2ccccc2)nn1` gave an IC50 of > 62500 nM (KCNH2; inhibitor).
